Experimental data of several laboratories.
Each numbered part is a random draw from the data of one study; scales do not carry over between parts. Several values in a cell are separate wells, animals, samples, runs or records.
Sequence of UniProt Q9XED8 (whole entry, looked up): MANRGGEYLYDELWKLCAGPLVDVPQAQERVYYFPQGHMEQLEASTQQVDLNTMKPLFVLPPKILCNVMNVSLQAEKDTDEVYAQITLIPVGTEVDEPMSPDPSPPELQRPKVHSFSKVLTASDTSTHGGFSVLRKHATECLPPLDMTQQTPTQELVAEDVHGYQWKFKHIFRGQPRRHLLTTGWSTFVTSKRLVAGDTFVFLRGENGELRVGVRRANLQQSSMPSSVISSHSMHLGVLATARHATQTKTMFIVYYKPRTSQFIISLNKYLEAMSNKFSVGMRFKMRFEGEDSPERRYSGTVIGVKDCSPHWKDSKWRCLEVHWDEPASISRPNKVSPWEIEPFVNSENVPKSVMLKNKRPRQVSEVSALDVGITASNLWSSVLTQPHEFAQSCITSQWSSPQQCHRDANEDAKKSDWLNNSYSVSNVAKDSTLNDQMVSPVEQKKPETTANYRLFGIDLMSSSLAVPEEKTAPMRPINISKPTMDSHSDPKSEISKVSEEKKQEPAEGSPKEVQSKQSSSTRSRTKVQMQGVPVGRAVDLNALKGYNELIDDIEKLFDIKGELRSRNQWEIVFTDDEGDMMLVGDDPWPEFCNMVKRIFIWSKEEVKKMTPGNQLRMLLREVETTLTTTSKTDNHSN
Sequence of UniProt Q9C5X0 (whole entry, looked up): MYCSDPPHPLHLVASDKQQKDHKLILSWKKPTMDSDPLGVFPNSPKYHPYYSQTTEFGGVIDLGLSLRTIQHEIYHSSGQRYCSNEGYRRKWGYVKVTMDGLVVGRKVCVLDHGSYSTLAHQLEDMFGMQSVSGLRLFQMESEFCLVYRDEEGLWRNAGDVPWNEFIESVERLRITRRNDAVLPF
Sequence of UniProt Q8L7G0 (whole entry, looked up): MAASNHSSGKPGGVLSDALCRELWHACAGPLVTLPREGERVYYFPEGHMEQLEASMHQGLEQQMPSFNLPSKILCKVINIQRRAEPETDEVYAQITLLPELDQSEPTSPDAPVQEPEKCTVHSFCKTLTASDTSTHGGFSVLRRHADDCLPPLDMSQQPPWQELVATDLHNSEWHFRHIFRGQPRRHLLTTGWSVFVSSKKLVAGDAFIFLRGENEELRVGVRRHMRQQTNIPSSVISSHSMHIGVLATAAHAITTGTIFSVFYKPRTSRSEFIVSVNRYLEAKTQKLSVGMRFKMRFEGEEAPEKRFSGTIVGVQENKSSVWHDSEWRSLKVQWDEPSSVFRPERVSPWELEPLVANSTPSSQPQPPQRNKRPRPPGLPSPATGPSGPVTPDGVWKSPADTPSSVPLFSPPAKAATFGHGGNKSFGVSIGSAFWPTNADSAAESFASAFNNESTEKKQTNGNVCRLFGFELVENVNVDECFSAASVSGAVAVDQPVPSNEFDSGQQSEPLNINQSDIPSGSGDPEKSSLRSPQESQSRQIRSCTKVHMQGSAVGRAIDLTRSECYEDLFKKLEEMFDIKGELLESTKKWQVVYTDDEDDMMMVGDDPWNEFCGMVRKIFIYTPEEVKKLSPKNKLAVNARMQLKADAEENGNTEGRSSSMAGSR
Sequence of UniProt Q94JM3 (whole entry, looked up): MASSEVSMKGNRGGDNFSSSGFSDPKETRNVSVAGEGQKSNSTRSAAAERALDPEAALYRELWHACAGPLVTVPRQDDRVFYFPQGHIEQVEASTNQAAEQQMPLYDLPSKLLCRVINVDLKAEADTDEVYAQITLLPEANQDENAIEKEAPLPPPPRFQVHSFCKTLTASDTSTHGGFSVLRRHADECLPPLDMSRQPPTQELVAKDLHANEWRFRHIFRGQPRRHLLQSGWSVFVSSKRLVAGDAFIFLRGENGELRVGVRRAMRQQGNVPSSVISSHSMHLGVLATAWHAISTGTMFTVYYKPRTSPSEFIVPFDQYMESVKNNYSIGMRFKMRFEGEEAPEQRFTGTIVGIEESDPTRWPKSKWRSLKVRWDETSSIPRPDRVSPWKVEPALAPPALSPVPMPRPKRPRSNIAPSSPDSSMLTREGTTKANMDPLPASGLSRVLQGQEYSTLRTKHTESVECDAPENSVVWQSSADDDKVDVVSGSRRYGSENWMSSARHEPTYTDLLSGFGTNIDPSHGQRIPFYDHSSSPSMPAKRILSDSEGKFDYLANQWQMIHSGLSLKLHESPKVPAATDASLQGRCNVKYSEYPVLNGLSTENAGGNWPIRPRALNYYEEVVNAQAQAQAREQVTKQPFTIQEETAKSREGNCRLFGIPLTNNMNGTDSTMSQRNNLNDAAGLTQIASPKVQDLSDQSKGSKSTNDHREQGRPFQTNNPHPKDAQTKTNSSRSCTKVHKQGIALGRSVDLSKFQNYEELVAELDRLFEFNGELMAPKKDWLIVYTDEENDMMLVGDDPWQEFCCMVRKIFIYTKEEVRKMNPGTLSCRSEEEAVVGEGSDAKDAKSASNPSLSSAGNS
Sequence of UniProt Q9FGV1 (whole entry, looked up): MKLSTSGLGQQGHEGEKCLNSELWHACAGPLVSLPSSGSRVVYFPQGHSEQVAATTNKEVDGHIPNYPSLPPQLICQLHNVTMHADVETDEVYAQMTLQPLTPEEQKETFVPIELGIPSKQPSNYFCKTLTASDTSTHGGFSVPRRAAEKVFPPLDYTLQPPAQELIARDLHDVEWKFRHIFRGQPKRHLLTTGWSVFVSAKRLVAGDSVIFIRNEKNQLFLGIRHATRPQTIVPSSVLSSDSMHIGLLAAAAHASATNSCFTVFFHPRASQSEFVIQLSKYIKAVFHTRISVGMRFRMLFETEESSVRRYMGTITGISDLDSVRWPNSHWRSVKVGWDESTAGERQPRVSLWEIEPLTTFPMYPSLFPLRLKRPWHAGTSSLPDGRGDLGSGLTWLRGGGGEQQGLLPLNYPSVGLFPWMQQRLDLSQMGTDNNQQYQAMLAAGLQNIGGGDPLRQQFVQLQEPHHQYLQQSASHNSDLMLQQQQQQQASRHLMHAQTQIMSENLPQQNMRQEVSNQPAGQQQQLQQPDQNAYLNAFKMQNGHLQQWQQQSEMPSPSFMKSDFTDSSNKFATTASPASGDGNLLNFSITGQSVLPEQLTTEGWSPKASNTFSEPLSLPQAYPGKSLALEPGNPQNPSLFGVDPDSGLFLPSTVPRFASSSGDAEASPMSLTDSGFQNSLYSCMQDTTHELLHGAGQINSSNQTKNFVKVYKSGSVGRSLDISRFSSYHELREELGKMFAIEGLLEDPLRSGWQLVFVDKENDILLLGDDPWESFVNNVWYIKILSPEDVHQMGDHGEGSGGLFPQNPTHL

Series 1 — cell line: normal organoid sample F; method: CellTiter-Glo; host: human; sample: normal-adjacent epithelium; concentration: 1 µM; baseline: DMSO
| Compound | viability |
| --- | --- |
| CO[C@@H](C)c1c(Nc2ccc([C@H](N(C)C(=O)C3CCS(=O)(=O)CC3)C(F)(F)F)cc2)cnc2cc(Cl)nn12 | 92.2% and 71.2% |
| CC(=O)Nc1c(C(C)=O)c(=O)n(C)c2nc(-c3ccc(Cl)cc3Cl)c(-c3ccc(Cl)cc3)cc12 | 107% and 115% |
| Cc1c(NC(=O)c2ccc(C(C)(C)C)cc2)cccc1-c1cn(C)c(=O)c(Nc2ccc(C(=O)N3CCOCC3)cc2)n1 | 130% and 169% |
| O=C(NS(=O)(=O)c1ccc(NCC2CCOCC2)c([N+](=O)[O-])c1)c1ccc(N2CCN(Cc3ccc(C(F)(F)F)cc3-c3ccc(Cl)cc3)CC2)cc1Oc1cnc2[nH]ccc2c1 | 110% and 125% |
| CC1=C(C#N)C(c2ccc3[nH]nc(C)c3c2)C(C#N)=C(C)N1 | 106% and 118% |
| Cc1c(C(=O)O)cc(-c2ccc(C3CCNCC3)cc2)c2ccc(-c3ccc(C(F)(F)F)cc3)cc12 | 110% and 120% |
| Cc1c(Oc2ccc(F)cc2)c(OC(C)C)nn1-c1ccc(C2CC2)cn1 | 178% and 142% |
| O=C(O)c1cc(-c2ccc(C3CCNCC3)cc2)c2ccc(-c3ccc(C(F)(F)F)cc3)cc2c1 | 102% and 81.7% |
| O=c1nc(-c2ccccn2)sc2ccccc12 | 85.7% and 113% |
| CC(=O)N1CCC(c2ccc(C(=O)NC(=N)N)cc2C(F)(F)F)CC1 | 113% and 108% |
| C[C@H](NC(=O)Nc1cc2[nH]ncc2c(CO)n1)c1ccccn1 | 98.1% and 97.3% |
| Cc1cnc(-c2cc(Cl)ccc2F)cc1-n1c(=O)n(CC(N)=O)c2cnccc21 | 120% and 183% |

Series 2 — Sequence: B1 (IAA28); method: two-hybrid; baseline: out of 4 tests; reading: higher = firmer interaction
B1: IAA28 (Arabidopsis thaliana, UniProt Q9XFM0); chain MEEEKRLELRLAPPCHQFTSNNNINGSKQKSSTKETSFLSNNRVEVAPVVGWPPVRSSRRNLTAQLKEEMKKKESDEEKELYVKINMEGVPIGRKVNLSAYNNYQQLSHAVDQLFSKKDSWDLNRQYTLVYEDTEGDKVLVGDVPWEMFVSTVKRLHVLKTSHAFSLSPRKHGKE
| partner | conditions | positive tests |
| --- | --- | --- |
| ARF2 727-859 (Arabidopsis thaliana, UniProt Q94JM3) |  | 0 |
| IAA34 (Arabidopsis thaliana, UniProt Q9C5X0) |  | 3 |
| ARF9 519-638 (Arabidopsis thaliana, UniProt Q9XED8) | weak activation fusion | 2 |
| ARF8 699-811 (Arabidopsis thaliana, UniProt Q9FGV1) |  | 4 |
| ARF1 538-665 (Arabidopsis thaliana, UniProt Q8L7G0) |  | 0 |

Series 3 — cell line: mouse MPNST tumor cells; method: high-content immunofluorescence imaging; item: nuclear SOX9; concentration: 10 µM; time: 12 h; setting: mean of 2 replicates; baseline: DMSO control; reading: higher = more nuclear SOX9
| Structure (SMILES) | nuclear SOX9 intensity |
| --- | --- |
| C[C@H](N[C@@H](CCc1ccccc1)C(=O)O)C(=O)N1CCC[C@H]1C(=O)O | 92 % of DMSO and 100 % of DMSO |
| CCN(CC)Cc1cc(Nc2ccnc3cc(Cl)ccc23)ccc1O | 172 % of DMSO |
| COc1ccn2ncc(-c3nc4[nH]nc(NC(=O)c5ccc(F)cc5)c4cc3F)c2c1 | 101 % of DMSO |

Further values, each from its own experiment
| Compound | tested on | test | test system | conditions | scale | measurement | result |
| --- | --- | --- | --- | --- | --- | --- | --- |
| Cl.NC(N)=NC(=O)c1nc(Cl)c(N)nc1N.O | Sarcocystis neurona | parasite growth |  | concentration not given, first screen | baseline: untreated | log2 fold change | 0.19 |
| CN(C(=O)c1ccn2ncc(-c3ccc(C(N)=O)cc3)c2c1)c1ccc(C#N)cn1 | Cryptosporidium parvum | time-kill | HCT-8, nanoluciferase-expressing | 0.00102 µM, 4 h | baseline: DMSO control | luminescence remaining | 83.2% and 73.2% |
| c1ccc(-c2csc(-c3nc(-c4cccs4)cs3)n2)cc1 |  |  | human, microsomes or S9 | 2 µM, 0.5 h |  | remaining compound | 94.7% |
| Cc1ncc(C[n+]2csc(CCO)c2C)c(N)n1 | HaCaT |  |  | 100 µM, 60 h |  | viability | 136% |
| O=C(COc1ccc(Cl)cc1)NC1CCC(NC(=O)COc2ccc(Cl)cc2)CC1 (stereo not drawn) | HEK293T ATF4-firefly luciferase reporter | integrated stress response, item: ATF4 |  | concentration not given | baseline: DMSO | reporter signal | 84.3% and 68.3% and 60.8% and 71.2% and 72.7% and 72.6% and 65.6% and 76.4% |
| CC(C)n1cnc(-c2ccc(F)cc2)c1-c1ncc(C(=O)Nc2ccc(N3CCN(C)CC3)cc2)[nH]1 |  | phase 2a trial | idiopathic pulmonary fibrosis patients | dose not given, adverse event grade 5, all dose arms pooled |  | patients with decreased appetite | 0% |
| COc1cccc2c1C(=O)c1c(O)c3c(c(O)c1C2=O)C[C@@](O)(C(C)=O)C[C@@H]3O[C@H]1C[C@H](N)[C@H](O)[C@H](C)O1 | A-375 |  |  | 100 µM, 60 h |  | viability | 17.9% |

Some of these lines once more (further values, each from its own experiment):
| Compound | tested on | test | test system | conditions | scale | measurement | result |
| --- | --- | --- | --- | --- | --- | --- | --- |
| Cl.NC(N)=NC(=O)c1nc(Cl)c(N)nc1N.O | Sarcocystis neurona | parasite growth |  | concentration not given, first screen | baseline: untreated | log2 fold change | 0.19 |
| CN(C(=O)c1ccn2ncc(-c3ccc(C(N)=O)cc3)c2c1)c1ccc(C#N)cn1 | Cryptosporidium parvum | time-kill | HCT-8, nanoluciferase-expressing | 0.00102 µM, 4 h | baseline: DMSO control | luminescence remaining | 83.2% and 73.2% |
| c1ccc(-c2csc(-c3nc(-c4cccs4)cs3)n2)cc1 |  |  | human, microsomes or S9 | 2 µM, 0.5 h |  | remaining compound | 94.7% |
